Measured values collected from several papers.
Each numbered part is a random draw from the data of one study; scales do not carry over between parts.

Set 1
Target: Interferon regulatory factor 3, full length, phosphomimetic (IRF3, Homo sapiens, UniProt Q14653, residues 1-427, S386D/S396D/S398D/S402D/T404D/S405D)
Method: protein-binding microarray
Molecule type: double-stranded DNA, one strand shown
Matrix: in vitro
Tested at: 2540 nM top
Notes: 60-bp whole probe
Together with: salmon DNA 0.4 mg/ml
Relative to: random background probes
Direction: higher = stronger binding
Construct (chain): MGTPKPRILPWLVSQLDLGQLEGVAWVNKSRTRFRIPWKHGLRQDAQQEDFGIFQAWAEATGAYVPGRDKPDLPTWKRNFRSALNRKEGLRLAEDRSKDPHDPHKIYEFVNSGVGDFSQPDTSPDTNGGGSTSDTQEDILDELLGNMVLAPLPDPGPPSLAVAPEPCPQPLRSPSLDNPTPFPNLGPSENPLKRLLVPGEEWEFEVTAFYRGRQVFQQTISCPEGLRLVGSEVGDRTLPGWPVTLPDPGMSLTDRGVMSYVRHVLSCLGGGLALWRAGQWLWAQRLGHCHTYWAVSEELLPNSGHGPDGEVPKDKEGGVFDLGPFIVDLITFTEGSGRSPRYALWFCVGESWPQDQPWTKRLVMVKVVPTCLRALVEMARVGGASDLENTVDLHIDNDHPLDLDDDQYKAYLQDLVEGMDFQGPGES
Sequence	fitted relative affinity [z-score]
GCCTAGCACTCATCTCGGAGATCTCGAACTGTGCTAGTCTTGATTCGCTTGACGCTGCTG	0.553
GCCTAGCACTGCTTTTTAGAAATTTTTTTTGTGCTAGTCTTGATTCGCTTGACGCTGCTG	0.227
GCCTAGCACTTAGATTTCGGTATCGGTTAGTGCTAGGTCTTGATTCGCTTGACGCTGCTG	5.82
GCCTAGCACGACGTTATCGGGACTGGGGACGTGCTAGTCTTGATTCGCTTGACGCTGCTG	0.337

Set 2
Target: Phosphate system positive regulatory protein PHO4, full length, GST-tagged (PHO4, Saccharomyces cerevisiae, UniProt P07270, residues 1-312)
Method: competition protein-binding microarray
Molecule type: double-stranded DNA, one strand shown
Matrix: in vitro
Tested at: 2 µM
Notes: whole 60-bp probe, lowest competitor level
Together with: Cbf1 competitor, 0.05 µM
Direction: higher = stronger binding
Residues (chain): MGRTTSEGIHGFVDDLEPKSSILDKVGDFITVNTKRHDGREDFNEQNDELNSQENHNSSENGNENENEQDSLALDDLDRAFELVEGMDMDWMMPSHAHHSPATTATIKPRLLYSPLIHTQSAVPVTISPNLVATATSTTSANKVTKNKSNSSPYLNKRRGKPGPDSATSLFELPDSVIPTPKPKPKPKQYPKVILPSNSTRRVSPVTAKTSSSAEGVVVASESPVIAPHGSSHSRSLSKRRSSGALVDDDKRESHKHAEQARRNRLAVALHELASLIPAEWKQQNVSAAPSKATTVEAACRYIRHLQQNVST
Sequence	fluorescence intensity [a.u.]
CATACCCAACCTTGTCAGGTGGGTGAAGATATTTGTGTCTTGATTCGCTTGACGCTGCTG	5560
CTTTCCCGATCTTGGAGTGTGGGTGTAGCACATTTGGTCTTGATTCGCTTGACGCTGCTG	5600
AAATTACTAAGTTGTCGAGTGGGTGACGCCGTATGAGTCTTGATTCGCTTGACGCTGCTG	3800

Set 3
Target: Sal-like protein 4, full length isoform B (SALL4, Homo sapiens, UniProt Q9UJQ4-2, residues 1-616)
Method: universal PBM
Molecule type: double-stranded DNA, one strand shown
Matrix: in vitro
Tested at: not given
Notes: 8-mer, flanks averaged, mean of replicates
Direction: higher = stronger binding
Construct (chain): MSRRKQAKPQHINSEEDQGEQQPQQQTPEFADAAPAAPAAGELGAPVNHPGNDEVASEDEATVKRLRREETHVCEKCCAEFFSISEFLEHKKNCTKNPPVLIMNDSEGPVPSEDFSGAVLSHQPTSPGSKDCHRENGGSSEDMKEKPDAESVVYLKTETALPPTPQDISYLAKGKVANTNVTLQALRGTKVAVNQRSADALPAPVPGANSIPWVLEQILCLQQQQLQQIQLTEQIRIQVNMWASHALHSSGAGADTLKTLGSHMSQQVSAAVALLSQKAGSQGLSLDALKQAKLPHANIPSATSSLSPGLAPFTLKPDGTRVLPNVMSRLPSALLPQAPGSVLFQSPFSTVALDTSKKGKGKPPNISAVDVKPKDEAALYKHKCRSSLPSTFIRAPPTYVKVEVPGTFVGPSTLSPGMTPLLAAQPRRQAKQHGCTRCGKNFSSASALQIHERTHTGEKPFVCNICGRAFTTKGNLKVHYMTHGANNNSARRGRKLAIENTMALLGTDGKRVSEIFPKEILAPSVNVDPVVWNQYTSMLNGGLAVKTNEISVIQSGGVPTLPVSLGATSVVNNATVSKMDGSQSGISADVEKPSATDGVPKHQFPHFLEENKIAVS
Sequence	E-score
ATAGCTGC	0.129
AGCTAATG	-0.0461
AACCGAGA	0.0541
AATGGAGG	-0.0208

Mixed results
Substance	target	assay	test system	conditions	how to read	quantity	value
PhoQ, residues 284 288 289 292 302 303 SSYNSA	PhoP, residues 12 14 15 18 19 GQALL (Escherichia coli, UniProt P23836)	Sort-seq, measured: YFP reporter	E. coli	PhoQ-PhoP variant library, together with: 10 µM Mg2+	relative to: high Mg2+ state, higher = stronger signaling	fold induction	2.34

Repeated from above (set 2):
Sequence	fluorescence intensity [a.u.]
CATACCCAACCTTGTCAGGTGGGTGAAGATATTTGTGTCTTGATTCGCTTGACGCTGCTG	5560
CTTTCCCGATCTTGGAGTGTGGGTGTAGCACATTTGGTCTTGATTCGCTTGACGCTGCTG	5600
